# Measured values from different studies.
# Compare with care: the assays were run in different laboratories.
# Organism: Candida albicans
SMILES,test,system,setting,MIC
CC[C@H]1OC(=O)[C@H](C)[C@@H](OC(=O)Cc2ccc3c(c2)OCO3)[C@H](C)[C@@H](O[C@@H]2O[C@H](C)C[C@H](N(C)C)[C@H]2O)[C@](C)(OC)C[C@@H](C)C(=O)[C@H](C)[C@@H](O)[C@]1(C)O,microbial growth,ATCC90028,,> 32 µg/mL
O=C(COP(=O)(O)O)C(O)C(O)C(O)COP(=O)(O)O (stereo not drawn),"microbial growth, broth dilution",SC5314,,> 128 µg/mL
COc1ccc(NC(=O)COc2cccc(OCC(C)C)c2)cc1,,,,4 µg/mL
N=C(N)NCCC[C@@H]1NC(=O)[C@H](CCCNC(=N)N)NC(=O)[C@@H](CCCNC(=N)N)NC(=O)[C@H](C(c2ccccc2)c2ccccc2)NC(=O)[C@H](C(c2ccccc2)c2ccccc2)NC(=O)[C@H](C(c2ccccc2)c2ccccc2)NC(=O)[C@H](CCCNC(=N)N)NC1=O,fungal growth,,,8 µg/mL
COc1ccc(/N=N/C(=S)N2CCOCC2)cc1,"microbial growth, broth dilution",ATCC10231,24 h,> 50 µM
COC1=CC(c2ccc[nH]2)=NC1=CNC1CCCCCC1.Cl,broth microdilution,ATCC 90028,24 h,16 µg/mL
CC[C@H]1OC(=O)[C@H](C)[C@@H](OC(=O)Cc2cccc(Cl)c2)[C@H](C)[C@@H](O[C@@H]2O[C@H](C)C[C@H](N(C)C)[C@H]2O)[C@](C)(OC)C[C@@H](C)C(=O)[C@H](C)[C@@H](O)[C@]1(C)O,microbial growth,ATCC90028,,> 32 µg/mL
O=c1c(O)c(-c2ccc(O)c(O)c2)oc2cc(O)c(O)c(O)c12,"microbial growth, broth dilution",SC5314,24 h,16 µg/mL
COc1ccc(/N=N/C(=S)N2CCCC2)cc1,"microbial growth, broth dilution",ATCC10231,24 h,> 50 µM
NCCOCCOCCNC(=O)Cc1ccc(Nc2nc(NCc3ccc(F)cc3)nc(NCC3CCCCC3)n2)cc1,"microbial growth, broth dilution",SC5314,24 h,1 µg/mL
CC[C@H]1OC(=O)[C@H](C)[C@@H](OC(=O)Cc2ccccc2Cl)[C@H](C)[C@@H](O[C@@H]2O[C@H](C)C[C@H](N(C)C)[C@H]2O)[C@](C)(OC)C[C@@H](C)C(=O)[C@H](C)[C@@H](O)[C@]1(C)O,microbial growth,ATCC90028,,> 32 µg/mL
CCc1cnn2c(NCc3ccc[n+]([O-])c3)cc(N3CCCCC3CCO)nc12 (stereo not drawn),"microbial growth, broth dilution",SC5314,24 h,> 128 µg/mL
CC[C@H]1OC(=O)[C@H](C)[C@@H](OC(=O)Cc2ccccc2[N+](=O)[O-])[C@H](C)[C@@H](O[C@@H]2O[C@H](C)C[C@H](N(C)C)[C@H]2O)[C@](C)(OC)C[C@@H](C)C(=O)[C@H](C)[C@@H](O)[C@]1(C)O,microbial growth,ATCC90028,,> 32 µg/mL
O=C(O[C@@H]1Cc2c(O)cc(O)cc2O[C@@H]1c1cc(O)c(O)c(O)c1)c1cc(O)c(O)c(O)c1,"microbial growth, broth dilution",SC5314,,16 µg/mL
CC[C@H]1OC(=O)[C@H](C)[C@@H](O[C@H]2C[C@@](C)(OC)[C@@H](O)[C@H](C)O2)[C@H](C)[C@@H](O[C@@H]2O[C@H](C)C[C@H](N(C)C)[C@H]2O)[C@](C)(OC)C[C@@H](C)C(=O)[C@H](C)[C@@H](O)[C@]1(C)O,microbial growth,ATCC90028,,> 32 µg/mL
N=C(N)NCCC[C@@H]1NC(=O)[C@H](CCCNC(=N)N)NC(=O)[C@@H](CCCNC(=N)N)NC(=O)[C@@H](CCCNC(=N)N)NC(=O)[C@@H](C(c2ccccc2)c2ccccc2)NC(=O)[C@H](Cc2c[nH]c3ccccc23)NC(=O)[C@@H](C(c2ccccc2)c2ccccc2)NC1=O,,CA3,,32 µg/mL
CC[C@H]1OC(=O)[C@H](C)[C@@H](OC(=O)Cc2ccc(C(F)(F)F)cc2)[C@H](C)[C@@H](O[C@@H]2O[C@H](C)C[C@H](N(C)C)[C@H]2O)[C@](C)(OC)C[C@@H](C)C(=O)[C@H](C)[C@@H](O)[C@]1(C)O,microbial growth,ATCC90028,,> 8 µg/mL
N=C(N)NCCC[C@@H]1NC(=O)[C@H](CCCNC(=N)N)NC(=O)[C@H](CCCNC(=N)N)NC(=O)[C@@H](CCCNC(=N)N)NC(=O)[C@H](Cc2ccc3ccccc3c2)NC(=O)[C@H](Cc2ccc3ccccc3c2)NC(=O)[C@H](Cc2ccc3ccccc3c2)NC1=O,,CA3,,16 µg/mL

# Some of these lines once more:
SMILES,test,system,setting,MIC
CC[C@H]1OC(=O)[C@H](C)[C@@H](OC(=O)Cc2ccccc2Cl)[C@H](C)[C@@H](O[C@@H]2O[C@H](C)C[C@H](N(C)C)[C@H]2O)[C@](C)(OC)C[C@@H](C)C(=O)[C@H](C)[C@@H](O)[C@]1(C)O,microbial growth,ATCC90028,,> 32 µg/mL
N=C(N)NCCC[C@@H]1NC(=O)[C@H](CCCNC(=N)N)NC(=O)[C@@H](CCCNC(=N)N)NC(=O)[C@H](C(c2ccccc2)c2ccccc2)NC(=O)[C@H](C(c2ccccc2)c2ccccc2)NC(=O)[C@H](C(c2ccccc2)c2ccccc2)NC(=O)[C@H](CCCNC(=N)N)NC1=O,fungal growth,,,8 µg/mL
